Measurements collected from several papers.
Compare with care: the assays were run in different laboratories. Several values in a cell are separate wells, animals, samples, runs or records. ± marks the error that the study gave.

O=C(O)c1ccc2c(c1)nc(NCc1ccccc1)c1ncncc12 — log Papp (PAMPA; PBS; 5 h, pH 7.4): -5.55
c1ccc2cc3ccccc3cc2c1 — log K(PDMS-water) (fresh water; 12 (unit not given), 20 °C, S30-1 sampler, 30 µm): 3.88 ± 0.04
CC[C@H](C)[C@H](NC(=O)[C@H](CCCNC(=N)N)NC(=O)[C@H](CCC(=O)O)NC(C)=O)C(=O)N[C@H]1CSSC[C@@H](C(=O)N[C@H](C(N)=O)[C@@H](C)O)NC(=O)[C@H](CCCNC(=N)N)NC(=O)[C@H](Cc2c[nH]cn2)NC(=O)[C@H](Cc2cccc3ccccc23)NC(=O)CNC(=O)[C@H](Cc2c[nH]c3ccccc23)NC(=O)[C@H](CC(=O)O)NC(=O)[C@H](CCC(N)=O)NC(=O)[C@H](Cc2c[nH]c3ccccc23)NC(=O)[C@H](C(C)C)NC1=O — log retention factor (isocratic RP-HPLC, C18; 32% acetonitrile, phosphate pH 7.4, 1% TFA; 25 °C): 0.122
C[Si](C)(C)O[Si](C)(C)O[Si](C)(C)C — log KOW (regression; 1-octanol/water; 25 °C): 6.79
CCOC(=O)COc1cccc2c1[n+]([O-])c1cccc(O)c1[n+]2[O-] — log effective permeability (PAMPA; artificial membrane in PBS; 50 µM, 5 h): -4.84
c1ccc2c(c1)ccc1ccccc12 — log K(PDMS-water) (fresh water; 12 (unit not given), 20 °C, S30-1 sampler, 30 µm): 3.77 ± 0.05
CN1CCN(c2ccc(C(=O)Nc3n[nH]c4ccc(Cc5cc(F)cc(F)c5)cc34)c(NC3CCOCC3)c2)CC1 — log D brain polar lipid (porcine brain polar lipids; 10 µM, pH 7.4, 0.2% DMSO): 3.28 ± 0.03
CC[C@H](C)[C@H](NC(=O)[C@H](CO)NC(=O)[C@H](CCCNC(=N)N)NC(C)=O)C(=O)N[C@H]1CSSC[C@@H](C(=O)N[C@H](C(N)=O)[C@@H](C)O)NC(=O)[C@H](CCCNC(=N)N)NC(=O)[C@H](Cc2c[nH]cn2)NC(=O)[C@H](C)NC(=O)CNC(=O)[C@H](Cc2c[nH]c3ccccc23)NC(=O)[C@H](CC(=O)O)NC(=O)[C@H](CCC(N)=O)NC(=O)[C@H](Cc2ccc3ccccc3c2)NC(=O)[C@H](C(C)C)NC1=O — log retention factor (RP-HPLC, C18; 28% acetonitrile isocratic; pH 7.4): 0.628
COc1cc2nc(c1)CNCc1cc(OC)cc(n1)CNC2 — log K2 (protonation constant, potentiometry; 298 K, ionic strength 0.15 M NaCl): 7
Oc1ccc(Br)c2cccnc12 — log P (oil/water; pH 7.4): 2.03
CCOC(=O)COc1cccc2c1[n+]([O-])c1ccccc1[n+]2[O-] — log effective permeability (PAMPA; artificial membrane in PBS; 50 µM, 5 h): -4.93
Cl.O=C(NO)c1ccc(CN2CCN(c3cccc4cc(S(=O)(=O)c5cccc(F)c5)cnc34)CC2)c(F)c1 — log k(IAM) (IAM chromatography; IAM.PC.DD2 column; pH 7.4, acetonitrile gradient): ~1.2
CC(=O)N[C@@H](CC(N)=O)C(=O)N[C@@H](CC(N)=O)C(=O)N[C@@H](CC(C)C)C(=O)N[C@H]1CSSC[C@@H](C(=O)N[C@H](C(N)=O)[C@@H](C)O)NC(=O)[C@H](CCCNC(=N)N)NC(=O)[C@H](Cc2c[nH]cn2)NC(=O)[C@H](Cc2cccc3ccccc23)NC(=O)CNC(=O)[C@H](Cc2c[nH]c3ccccc23)NC(=O)[C@H](CC(=O)O)NC(=O)[C@H](CCC(N)=O)NC(=O)[C@H](Cc2c[nH]c3ccccc23)NC(=O)[C@H](C(C)C)NC1=O — log retention factor (isocratic RP-HPLC, C18; 32% acetonitrile, phosphate pH 7.4, 1% TFA; 25 °C): 0.32
Cc1c(C)[n+]([O-])c2c(O)cccc2[n+]1[O-] — log effective permeability (PAMPA; artificial membrane in PBS; 50 µM, 5 h): -4.35
CC[C@H](C)[C@H](NC(C)=O)C(=O)N[C@H]1CSSC[C@@H](C(=O)N[C@H](C(N)=O)[C@@H](C)O)NC(=O)[C@H](CCCNC(=N)N)NC(=O)[C@H](Cc2c[nH]cn2)NC(=O)[C@@](C)(CC)NC(=O)CNC(=O)[C@H](Cc2c[nH]c3ccccc23)NC(=O)[C@H](CC(=O)O)NC(=O)[C@H](CCC(N)=O)NC(=O)[C@H](Cc2c[nH]c3ccccc23)NC(=O)[C@H](C(C)C)NC1=O — log retention factor (RP-HPLC, C18; 28% acetonitrile isocratic; pH 7.4): 0.591
CCN(CC)C(=O)COc1cccc2c1[n+]([O-])c1ccccc1[n+]2[O-] — log effective permeability (PAMPA; artificial membrane in PBS; 50 µM, 5 h): -5.2
COc1ccc2cc(CCC[18F])ccc2c1 — log P (n-octanol/0.1 M phosphate buffer; pH 7.4, 25 °C, per radiosynthesis batch): 2.54 and 2.47 and 2.37
CCOC(=O)COc1cccc2c1[n+]([O-])c1cc(Cl)c(Cl)cc1[n+]2[O-] — log effective permeability (PAMPA; artificial membrane in PBS; 50 µM, 5 h): -5.16
CC[C@H](C)[C@H](NC(=O)[C@H](CO)NC(=O)[C@H](CCCNC(=N)N)NC(C)=O)C(=O)N[C@H]1CSSC[C@@H](C(=O)N[C@H](C(N)=O)[C@@H](C)O)NC(=O)[C@H](CCCNC(=N)N)NC(=O)[C@H](Cc2c[nH]cn2)NC(=O)[C@H](C)NC(=O)CNC(=O)[C@H](Cc2c[nH]c3ccccc23)NC(=O)[C@H](CC(=O)O)NC(=O)[C@H](CCC(N)=O)NC(=O)[C@H](Cc2c[nH]c3ccccc23)NC(=O)[C@H](C(C)C)NC1=O — log retention factor (RP-HPLC, C18; 28% acetonitrile isocratic; pH 7.4): 0.13
C[Si](C)(C)O[Si](C)(C)C — log KAW (0.7 to 42 µg/L, 12.4 °C): 2.11
CC[C@H](C)[C@H](NC(=O)[C@H](CCCNC(=N)N)NC(=O)[C@H](CCC(=O)O)NC(C)=O)C(=O)N[C@H]1CSSC[C@@H](C(=O)N[C@H](C(N)=O)[C@@H](C)O)NC(=O)[C@H](CCCNC(=N)N)NC(=O)[C@H](Cc2c[nH]cn2)NC(=O)[C@H](C)NC(=O)CNC(=O)[C@H](Cc2c[nH]c3ccccc23)NC(=O)[C@H](CC(=O)O)NC(=O)[C@H](CCC(N)=O)NC(=O)[C@H](Cc2c[nH]c3ccccc23)NC(=O)[C@H](C(C)C)NC1=O — log retention factor (RP-HPLC, C18; 28% acetonitrile isocratic; pH 7.4): -0.208
CC(C)(Oc1ccc(CCNC(=O)c2ccc(Cl)cc2)cc1)C(=O)O — log Freundlich coefficient (SPME sorption isotherm; PBS): 0.44
CC[C@H](C)[C@H](NC(C)=O)C(=O)N[C@H]1CSSC[C@@H](C(=O)N[C@H](C(N)=O)[C@@H](C)O)NC(=O)[C@H](CCCNC(=N)N)NC(=O)[C@H](Cc2c[nH]cn2)NC(=O)[C@H](C)NC(=O)CNC(=O)[C@H](Cc2c[nH]c3ccccc23)NC(=O)[C@H](CC(=O)O)NC(=O)[C@H](CCC(N)=O)NC(=O)[C@H](Cc2c[nH]c3ccccc23)NC(=O)[C@H](C(C)C)NC1=O — log retention factor (RP-HPLC, C18; 28% acetonitrile isocratic; pH 7.4): 0.426
CC(C)(C)C(=O)Oc1cccc2c1[n+]([O-])c1cccc(OC(=O)C(C)(C)C)c1[n+]2[O-] — log effective permeability (PAMPA; artificial membrane in PBS; 50 µM, 5 h): -6.06
CC(=O)N[C@@H](CC(N)=O)C(=O)N[C@@H](CCCNC(=N)N)C(=O)N[C@@H](CC(C)C)C(=O)N[C@H]1CSSC[C@@H](C(=O)N[C@H](C(N)=O)[C@@H](C)O)NC(=O)[C@H](CCCNC(=N)N)NC(=O)[C@H](Cc2c[nH]cn2)NC(=O)[C@H](C)NC(=O)CNC(=O)[C@H](Cc2c[nH]c3ccccc23)NC(=O)[C@H](CC(=O)O)NC(=O)[C@H](CCC(N)=O)NC(=O)[C@H](Cc2c[nH]c3ccccc23)NC(=O)[C@H](C(C)C)NC1=O — log retention factor (RP-HPLC, C18; 28% acetonitrile isocratic; pH 7.4): 0.167
CC(C)(C)OC(=O)COc1cccc2c1[n+]([O-])c1ccccc1[n+]2[O-] — log effective permeability (PAMPA; artificial membrane in PBS; 50 µM, 5 h): -4.76
O=C(O)CN1Cc2cccc(n2)CN(CC(=O)O)Cc2cccc(n2)C1 — log KHL (potentiometric titration; 0.16 M NaCl; 25 °C): 9.25
CN(C)CCCC1(c2ccc(F)cc2)OCc2cc(C#N)ccc21 (stereo not shown) — log Freundlich coefficient (SPME sorption isotherm; PBS): 1.76
O=C(O)c1ccc2c(c1)nc(Nc1cccc(Cl)c1)c1ccncc12 — log Papp (PAMPA; PBS; 5 h, pH 7.4): -6.14
CC(C)(Oc1ccc(Cl)cc1)C(=O)O — log Freundlich coefficient (SPME sorption isotherm; PBS): 0.64
c1cc2nc(c1)CNCc1cccc(n1)CNC2 — log K2 (protonation constant, potentiometry; 298 K, ionic strength 0.15 M NaCl): 7.36

Some of these lines once more:
CC[C@H](C)[C@H](NC(=O)[C@H](CCCNC(=N)N)NC(=O)[C@H](CCC(=O)O)NC(C)=O)C(=O)N[C@H]1CSSC[C@@H](C(=O)N[C@H](C(N)=O)[C@@H](C)O)NC(=O)[C@H](CCCNC(=N)N)NC(=O)[C@H](Cc2c[nH]cn2)NC(=O)[C@H](Cc2cccc3ccccc23)NC(=O)CNC(=O)[C@H](Cc2c[nH]c3ccccc23)NC(=O)[C@H](CC(=O)O)NC(=O)[C@H](CCC(N)=O)NC(=O)[C@H](Cc2c[nH]c3ccccc23)NC(=O)[C@H](C(C)C)NC1=O — log retention factor (isocratic RP-HPLC, C18; 32% acetonitrile, phosphate pH 7.4, 1% TFA; 25 °C): 0.122
C[Si](C)(C)O[Si](C)(C)O[Si](C)(C)C — log KOW (regression; 1-octanol/water; 25 °C): 6.79
